Assay results from different studies.
± gives the spread as reported.

CCN1CC2(COC)CCC(OC)C34C5CC6C(OC)CC(O)(C5C6OC(=O)c5ccccc5)C(C(OC)C23)C14 (stereo not shown) — IC50 (NCI-H460; cell growth or viability, MTT): 15.7 µM
C[C@H]1[C@H](OCCc2ccc(O)cc2)O[C@@H]2O[C@@]3(C)CC[C@H]4[C@H](C)CC[C@@H]1[C@@]24OO3 — IC50 (C3PV; cell growth or viability, MTT; 24 h): 1.76 µM
Cc1cc(O)cc(-c2nc(Nc3cc(C(F)(F)F)cc(C(F)(F)F)c3)ncc2-c2ccnc(Cl)c2)c1 — IC50 (HT-29; 72 h): 7.5 ± 0.5 µM
CCN1CC2(COC)C(O)CC(OC)C34C5CC6(O)C(OC)C(O)C(O)(C5C6OC(=O)c5ccccc5)C(C(OC)C23)C14 (stereo not shown) — IC50 (NCI-H460; cell growth or viability, MTT): 18.9 µM
C[C@H]1C(OCCCCCCCCCCC[P+](c2ccccc2)(c2ccccc2)c2ccccc2)O[C@@H]2O[C@@]3(C)CCC4[C@H](C)CCC1[C@]42OO3 (stereo partly shown) — IC50 (HUVEC; cell viability, MTT; 72 h): 0.148 ± 0.0093 µM
CC[C@H]1OC(=O)[C@H](C(C)C)NC(=O)[C@H](C)OC(=O)[C@@H](C(C)C)NC(=O)[C@@H](C(C)C)OC(=O)[C@H](C(C)C)NC(=O)[C@H](C)OC(=O)[C@@H](C(C)C)NC(=O)[C@@H](C(C)C)OC(=O)[C@H](C(C)C)NC(=O)[C@H](C)OC(=O)[C@@H](C(C)C)NC1=O — IC50 (human Astrocyte; cell growth or viability): 9.1 µM
F[P-](F)(F)(F)(F)F.OCP(CO)CO.OCP(CO)CO.OCP(CO)CO.OCP(CO)CO.[Cu+] — IC50 (SW480; cell growth or viability, MTT; 72 h): 1.33 µM
CC(C)[C@H](NC(=O)[C@H](C(C)C)N(C)C)C(=O)N(C)[C@H](C(=O)N1CCC[C@H]1C(=O)N1CCC[C@H]1C(=O)O)C(C)C — IC50 (CA46; cell growth or viability; 48 h): 3 µM
Cc1cc(C)c(-n2c[n+](-c3c(C)cc(C)cc3C)c3c2-c2cccc4cccc-3c24)c(C)c1.[Cl][Pd-]([Cl])[CH2]C=Cc1ccccc1 — IC50 (2008 spheroids; cell viability, APH; 3D spheroids; 72 h): 45 ± 5 µM
COCC12CN(C)C3C4C(OC)C1C3(C(OC)CC2O)C1CC2(O)C(OC)C(O)C4(O)C1C2OC(=O)c1ccccc1 (stereo not shown) — IC50 (HBE; cell growth or viability, MTT): 32.8 µM
C[C@@H]1CCC2[C@@H](C)[C@@H](OCCC[P+](c3ccccc3)(c3ccccc3)c3ccccc3)O[C@@H]3O[C@@]4(C)CCC1[C@@]23OO4 (stereo partly shown) — IC50 (J82; cell growth or viability, MTT; 72 h): 0.229 µM
CNC(=O)c1cc(Oc2ccc(NC(=O)c3ccc(-c4ccccc4OC(=O)CCC(=O)OC4OC5OC6(C)CCC7C(C)CCC(C4C)C57OO6)cn3)cc2)ccn1 (stereo not shown) — IC50 (L02; cell growth or viability, MTT; 72 h): > 100 µM
O=C(Cc1ccc2ccccc2c1)N[C@H](Cc1ccc(O)cc1)C(=O)N[C@H](Cc1ccccc1)C(=O)N[C@H](Cc1ccccc1)C(=O)N[C@H](Cc1ccc(O)cc1)C(=O)O — IC50 (T98G; cell growth or viability, MTT): > 500 µg/mL
CC1N=C(CCCCCCCCCCC2=CC(CCCCCCCCCCC3=NC(C)C(O)CC3)C3CCCN3C2)CCC1O (stereo not shown) — IC50 (Vero; cytotoxicity, Neutral Red): > 23.8 µg/mL
C[C@H]1[C@H](OC(=O)CCC(=O)Oc2ccc(C(N)=S)cc2)O[C@@H]2O[C@@]3(C)CC[C@H]4[C@H](C)CC[C@@H]1[C@@]24OO3 — IC50 (L02; cell growth or viability, CCK-8; 72 h): 2.24 µM
CCC(C)C1OC(=O)C(NC(=O)c2cccc(NC=O)c2O)C(C)OC(=O)C(C(C)CC)OC(=O)C(C)(C)C(=O)C(Cc2ccccc2)OC1=O (stereo not shown) — IC50 (HCT-8/T taxol-resistant; cell viability, CCK-8; 72 h): 9.69 ± 0.047 µM
C[C@H]1C(OCCCCCCCC[P+](c2ccccc2)(c2ccccc2)c2ccccc2)O[C@@H]2O[C@@]3(C)CCC4[C@H](C)CCC1[C@]42OO3 (stereo partly shown) — IC50 (HUVEC; cell viability, MTT; 72 h): 0.252 ± 0.0311 µM
COCC12CCC(OC)C34C5CC6(O)C(OC)C(O)C(O)(C5C6OC(=O)c5ccccc5)C(C(OC)C13)C4N(C)C2 (stereo not shown) — IC50 (NCI-H460; cell growth or viability, MTT): 21.8 µM
CN(C)C(=O)[C@@H](NC(=O)c1cnccc1-c1ccc(C(F)(F)F)cc1)c1cc(C(F)(F)F)cc(C(F)(F)F)c1 — IC50 (KHYG-1 with Ba/F3-MICA cells; NKG2D-mediated cell killing, inhibitor; 6 h): 0.2 ± 0.2 µM
Cc1cc(C)c(-n2ccn(-c3c(C)cc(C)cc3C)c2=[Se])c(C)c1.[Cl][Ag] — IC50 (LoVo; cell growth or viability, MTT; 72 h): 2.7 µM
C1N2CN3CN1CP(C2)C3.CC(C)OC(=O)C(n1cccn1)n1cccn1.F[P-](F)(F)(F)(F)F.[Cu+] — IC50 (BCPAP; cell growth or viability, MTT; 72 h): 46.5 µM
OC[C@H]1[C@@H](O)[C@@H](O)CN1Cc1ccccc1 — IC50 (CEM-DNR daunorubicin resistant; MTS; 72 h): 93 ± 11 µM
COc1cc(/C=C(\C#N)C(=O)Nc2nnc(C(F)(F)F)s2)ccc1OC(=O)N1CCN(C(=O)CCCC(=O)NCCCC[C@@H]2NC(=O)[C@@H](Cc3ccc(O)cc3)NC(=O)[C@H](CC(=O)O)NC(=O)CNC(=O)[C@H](CCCNC(=N)N)NC2=O)CC1 — IC50 (MRC5; cell growth or viability, MTT): > 100 µM
C=C(CC(O)C(=O)O)C(=O)O (racemic) — IC50 (K562 parental; cell growth; 72 h): 40 µM
CC[C@H](C)[C@@H]1NC(=O)[C@H](CCCNC(=N)N)NC(=O)C[C@@H](c2cccc3ccccc23)NC(=O)[C@@H]2CSSC[C@H](NC(=O)C[C@@H](c3cccc4ccccc34)NC(=O)[C@H](CCCNC(=N)N)NC(=O)[C@@H]3CCCN3C(=O)[C@@H]3CCCN3C1=O)C(=O)N[C@@H](Cc1ccccc1)C(=O)N1CCC[C@H]1C(=O)N[C@@H](CC(=O)O)C(=O)N[C@@H](CC(=O)O)C(=O)N[C@@H](Cc1ccccc1)C(=O)N2 — IC50 (NCI-H1975 (EGFR L858R/T790M); cell growth): 4.22 µM
COc1c(O)c(-c2c(O)c(OC)c(OC)c3c2ccc2cc(O)ccc23)c2c(c1OC)-c1ccc(O)cc1CC2 — IC50 (human Fibroblast; cell growth or viability, CCK-8; 24 h): 9.69 µM
CN1C(=O)[C@H](Cc2ccccc2)N(C)C(=O)[C@@H]2[C@H]1CCN2Cc1cc(Cl)cc(Cl)c1 — IC50 (KHYG-1 with Ba/F3-MICA cells; NKG2D-mediated cell killing, inhibitor; 6 h): ~40 µM
[CH3][Ti+2][O]C(=O)c1ccc([S][Au][PH](c2ccccc2)(c2ccccc2)c2ccccc2)cc1.c1cc[cH-]c1.c1cc[cH-]c1 — IC50 (HEK-293T; cell growth or viability, XTT; 72 h): 0.49 µM
Cc1cccc([C@H](NC(=O)c2cnccc2-c2ccc(C(F)(F)F)cc2)C(=O)N(C)C)c1 — IC50 (KHYG-1 with Ba/F3-MICA cells; NKG2D-mediated cell killing, inhibitor; 6 h): 0.4 ± 0.1 µM
[Cl][Os][Ge]([Cl])([Cl])[Cl].c1ccc(P(c2ccccc2)c2ccccc2)cc1.c1ccccc1 — IC50 (Dalton's lymphoma cells; cell viability, MTT; 24 h): 1.7 ± 0.06 µM
C[C@@H](O)[C@H](NC(=O)[C@H](CCCNC(=N)N)NC(=O)[C@H](CCCNC(=N)N)NC(=O)[C@H](CCCNC(=N)N)NC(=O)[C@@H]1CCCN1C(=O)[C@@H](N)CO)C(=O)N1CCC[C@H]1C(=O)N[C@@H](CO)C(=O)N1CCC[C@H]1C(=O)N[C@@H](CCCNC(=N)N)C(=O)N[C@@H](CCCNC(=N)N)C(=O)N[C@@H](CCCNC(=N)N)C(=O)N[C@@H](CCCNC(=N)N)C(=O)N[C@@H](CO)C(=O)N[C@@H](CCC(N)=O)C(=O)N[C@@H](CO)C(=O)N1CCC[C@H]1C(=O)N[C@@H](CCCNC(=N)N)C(=O)N[C@@H](CCCNC(=N)N)C(=O)N[C@@H](CCCNC(=N)N)C(N)=O — IC50 (BT-474; cell viability, CellTiter-Blue; 24 h, serum-free medium): > 100 µM
CNC(=O)c1cc(Oc2ccc(NC(=O)c3cc(-c4ccc(COC(=O)CCC(=O)OC5OC6OC7(C)CCC8C(C)CCC(C5C)C68OO7)cc4)ccn3)cc2)ccn1 (stereo not shown) — IC50 (L02; cell growth or viability, MTT; 72 h): 48.1 µM
C[C@H]1C(OCCCCC[P+](c2ccccc2)(c2ccccc2)c2ccccc2)O[C@@H]2O[C@@]3(C)CCC4[C@H](C)CCC1[C@]42OO3 (stereo partly shown) — IC50 (HUVEC; cell viability, MTT; 72 h): 0.41 ± 0.0251 µM
Cc1ccnc(-c2cc(C)ccn2)c1.[C-]#[O+].[C-]#[O+].[C-]#[O+].[Re+] — IC50 (H460; cell viability): 14 ± 1 µM
Cc1cc(Nc2nc(C[C@@]3(C(=O)O)CCN(Cc4cccc(Cl)c4F)[C@H](C)C3)cc(C)c2F)[nH]n1 — IC50 (NCI-H209; cell proliferation; 5 days): 0.406 µM
CCN1CC2(COC)CCC(OC)C34C5CC6C(OC)CC(C5C6O)C(C(OC)C23)C14 (stereo not shown) — IC50 (NCI-H460; cell growth or viability, MTT): 9.92 µM
O=C(C[P+]([Au-][Cl])(c1ccccc1)c1ccccc1)[O][Ti+2][O]C(=O)C[P+]([Au-][Cl])(c1ccccc1)c1ccccc1.c1cc[cH-]c1.c1cc[cH-]c1 — IC50 (A498; cell viability, XTT; 24 h): 8.7 µM
CNC(=O)c1cc(Oc2ccc(NC(=O)c3ccc(-c4cccc(COC(=O)CCC(=O)OC5OC6OC7(C)CCC8C(C)CCC(C5C)C68OO7)c4)cn3)cc2)ccn1 (stereo not shown) — IC50 (L02; cell growth or viability, MTT; 72 h): > 100 µM
C=C1C2CC3(C1O)C1CC4C5(C)CCC(O)C4(C1N(CC)C5)C3CC2O (stereo not shown) — IC50 (NCI-H460; cell growth or viability, MTT): 20.9 µM
CC1=CC(C)=[N+]2C1=Cc1ccc(CCC(=O)NCC3C[NH][Pt]([Cl])([Cl])[NH]3)n1[B-]2(F)F (stereo not shown) — IC50 (KB 3-1; cell growth or viability, ATP luminescence): 36.9 µM
[Cl][Ag].[Se]=c1n(C2CCCCC2)ccn1C1CCCCC1 — IC50 (LoVo; cell growth or viability, MTT; 72 h): 4.7 µM
CC(C)c1cccc(C(C)C)c1-n1c[n+](-c2c(C(C)C)cccc2C(C)C)c2c1-c1cccc3cccc-2c13.[Cl][Pd-]([Cl])[CH2]C=Cc1ccccc1 — IC50 (2008; cell growth, MTT; 72 h): 7.2 ± 0.8 µM
CCN1CC2(COC)CCC(O)C34C5CC(C(CO)OC)CC5C(=O)C(C(OC)C23)C14 (stereo not shown) — IC50 (HBE; cell growth or viability, MTT): 26.9 µM
